Results pooled from the literature.
Lines come from different studies, so protocols differ. Numbers after ± are the reported error. Converted amounts (≈) assume the structure as drawn.

Cc1ccc(/C=C/C(=O)O)cc1-c1cc2c(cc1C)C(C)(C)CCC2(C)C  LDL level (Sprague-Dawley rat, male, plasma; oral, 100 mg/kg, 3 h, sesame oil vehicle): 14 ± 7.5 mg/dL
CN[C@](C)(C[18F])C(=O)O  tissue uptake (SCID mouse MDA-MB-468 xenograft, brain; 120 min, post injection): 0.2 ± 0.03 %ID/g
CC(C)[C@H](NC(=O)CNC(=O)[C@H](CCC(N)=O)NC(=O)[C@H](C)N)C(=O)O  subjects with serious adverse events (human; intravenous infusion, 45 mg/kg/h, 2 h infusion): 0%
CC(=O)[O-].CN1CCCN2CCN(C)CCCN(CC1)CC2.F[P-](F)(F)(F)(F)F.[Co+2]  E1/2 (cyclic voltammetry, item: second Co2+/Co3+ couple; acetonitrile; baseline: SHE): 0.536 V
C=C1C(=O)O[C@@H]2C[C@H](C)[C@@H]3C[C@H](O[Si](c4ccccc4)(c4ccccc4)C(C)(C)C)[C@H](O)[C@@]3(C)C[C@H]12  CC50 (propidium iodide flow cytometry; primary splenocytes, BALB/c mouse; 48 h, 10% fetal calf serum): 72 ± 1.5 µg/mL (≈ 143 µM)
[11CH3]n1c(=O)n(CCCO)c(=O)c2c1nc(Oc1cccc(OC(F)(F)F)c1)n2Cc1ccc(Cl)cc1  tracer uptake (ex vivo biodistribution; Sprague Dawley rat, kidney; 30 min post injection): 1.34 ± 0.05 %ID/g
CC(C)[C@H](NC(=O)CNC(=O)[C@H](CCC(N)=O)NC(=O)[C@H](C)N)C(=O)O  discontinuation due to AE (healthy male volunteers; intravenous, 15 mg/kg/h, 2 h, together with: LPS 2 ng/kg): 0%
O=P1(NCCCl)NCCCO1 (centres unmarked)  AUC(0-inf) (rat, plasma; intravenous, 10 mg/kg, together with: ketoconazole 40 mg/kg oral 50 min before): 494 ± 96.3 ng·h/mL
O=C(O)c1ccc([S][Au][PH](c2ccccc2)(c2ccccc2)[c-]2cccc2)cc1.[Fe+2].c1cc[cH-]c1  pH (DMSO/water; 5 × 10 µM): 4.99
CNC(=O)c1ncn2c(=O)n(C)nnc12  remaining compound (mouse CD-1 male, liver microsomes; 50 µM, 2 h, pH 7.4; baseline: time zero): 86 ± 1%
O=P([O-])([O-])Oc1ccc(-c2cc(=S)ss2)cc1.[Na+].[Na+]  solubility (HPLC; aqueous buffer; pH 7.4, 25 °C): ~1500 µg/mL
CCCCCCCCCCCCC(=O)O.O=C1CCCC2C3CCCN4CCCC(CN12)C34 (centres unmarked)  standard Gibbs energy of micellization (electrical conductivity; water; 308.15 K, critical micelle concentration): -8.78 kcal/mol
CSCC[C@@H]1NC(=O)[C@@H]2CSSC[C@H](NC(=O)[C@H](CO)NC(=O)[C@H](C)N)C(=O)N[C@@H](CCCNC(=N)N)C(=O)N[C@@H]([C@@H](C)O)C(=O)N3CCC[C@H]3C(=O)N[C@@H](CCCCN)C(=O)N[C@@H](CC(=O)O)C(=O)N[C@H]3CSSC[C@H](NC(=O)[C@H](CCCCN)NC(=O)[C@H](CCCNC(=N)N)NC(=O)[C@H](CC(N)=O)NC1=O)C(=O)N[C@@H](CCCCN)C(=O)N[C@H]1CSSC[C@H](NC(=O)[C@@H]4CCCN4C(=O)[C@H](CC(=O)O)NC(=O)[C@H](C)NC3=O)C(=O)N[C@@H](C)C(=O)N[C@@H](CCCCN)C(=O)N[C@@H](CCC(=O)O)C(=O)N[C@@H]([C@@H](C)O)C(=O)NCC(=O)N[C@@H](CSSC[C@@H](C(N)=O)NC(=O)[C@H](CCCNC(=N)N)NC(=O)[C@H](CC(N)=O)NC1=O)C(=O)N1CCC[C@H]1C(=O)N[C@@H](Cc1ccc(O)cc1)C(=O)NCC(=O)N[C@@H](CCCCN)C(=O)N2  Magnesium (DA rat pristane-induced arthritis, serum; subcutaneous, 0.1 mg/kg every other day, 21 days): 1.94 mg/dL
c1ccc(C2(CCNC3CCC4(SCCS4)c4ccccc43)CCOC3(CCCC3)C2)nc1 (centres unmarked)  clearance (Sprague-Dawley rat, plasma; intravenous, 0.05 mg/kg): 17 mL/min/kg
CC[C@H](C)C(=O)N1CCC(NC(=O)Nc2ccc(OC(F)(F)F)c(F)c2)CC1  Tmax (human, plasma; oral, 16 mg, single dose, healthy volunteers): 1.25 h
[2H]C([2H])([2H])C([2H])([2H])C([2H])([2H])OC(C(=O)OC1CCNCC1)(c1ccccc1)c1ccccc1  adverse drug reactions (item: C-reactive protein increased; healthy Japanese male; oral, 12 mg once daily, 16 days): 0%
C[C@H](CCC(=O)N[C@@H](CCCCNC(=O)C(F)(F)F)C(=O)O)[C@H]1CC[C@H]2[C@@H]3[C@H](O)C[C@@H]4C[C@H](O)CC[C@]4(C)[C@H]3C[C@H](O)[C@]12C  AUC(0-24 h) (C57BL/6J mice, gallbladder; oral, 50 mg/kg): 143000 µM·h
CCCC[C@H](NC(=O)CCOCCOCCNC(=O)CN1CCN(CC(=O)O)CCN(CC(=O)O)CCN(CC(=O)O)CC1)C(=O)N[C@H]1CC(=O)NCCCC[C@@H](C(N)=O)NC(=O)[C@H](Cc2c[nH]c3ccccc23)NC(=O)[C@H](CCCNC(=N)N)NC(=O)[C@@H](Cc2ccccc2)NC(=O)[C@H](Cc2c[nH]cn2)NC1=O [gallium-68 labelled]  intact compound (radio-HPLC; mouse, plasma; intravenous, 8 to 12 MBq, 15 min post injection): > 98%
C#Cc1c(F)ccc2cc(O)cc(-c3ncc4c(N5CC6CCC(C5)N6C(=O)OCc5ccc(OC(=O)CCCC)cc5)nc(OC[C@@]56CCCN5C[C@H](F)C6)nc4c3F)c12  compound remaining (chemical stability; simulated intestinal fluid; 1 µM, 30 min): 20%
CCNc1cc2[o+]c3cc(NCC)c(C)cc3c(-c3ccccc3C(=O)OCCOCC[18F])c2cc1C  tissue uptake (rat, skin; 30 min): 0.15 ± 0.02 %ID/g
CC(C)[C@@H]1NC(=O)[C@H](Cc2ccccc2)NC(=O)[C@H](Cc2ccc(O)cc2)NC(=O)CCSSC[C@@H](C(=O)N2CCC[C@H]2C(=O)N[C@H](CCCNC(=N)N)C(=O)NCC(N)=O)NC(=O)[C@H](CCC(N)=O)NC1=O  fibrinogen (Wistar rat, blood; intravenous, 1 µg/kg single dose, 72 h): 206 ± 56.7 mg/dL
CC[C@H](C)[C@@H]1NC(=O)[C@H](CCCCN)NC(=O)[C@H](CCCCN)NC(=O)[C@H](Cc2ccc(O)cc2)NC(=O)[C@H](CC(C)C)NC(=O)[C@@H]2CCCN2C(=O)[C@H](C)NC(=O)CNC(=O)CNC(=O)[C@H](CO)NC(=O)CNC(=O)CNC(=O)[C@H](CO)NC(=O)[C@H](CCC(=O)O)NC(=O)[C@H](CC(C)C)NC(=O)[C@H](CC(C)C)NC(=O)[C@H](CCCCN)NC(=O)[C@H](CCCCN)NC(=O)[C@H](C(C)C)NC(=O)[C@H]([C@@H](C)CC)NC(=O)[C@H](CCCCN)NC(=O)[C@H](CCCCN)NC(=O)[C@H](Cc2ccc(O)cc2)NC(=O)[C@H](CC(C)C)NC(=O)[C@@H]2CCCN2C(=O)CNC(=O)CNC(=O)[C@@H](NC(=O)CN)CSSC[C@@H](C(N)=O)NC(=O)[C@H](CC(C)C)NC(=O)[C@H](CCCCN)NC(=O)[C@H](CCCCN)NC(=O)[C@H](C(C)C)NC1=O  HC10 (hemolysis; uninfected human erythrocytes; 1 h): ~52 µM
Cc1ncsc1-c1ccc(CNC(=O)[C@@H]2C[C@@H](O)CN2C(=O)[C@@H](NC(=O)CN2CCN(C3CN(CCNC(=O)c4cc5c(cc4CS(C)(=O)=O)-c4cn(C)c(=O)c6[nH]cc(c46)CN5c4ncc(F)cc4F)C3)CC2)C(C)(C)C)cc1  kinetic solubility (Sf9 cell culture medium): 120 µM (≈ 136 µg/mL)
N=C(N)NCc1ccc(C(=O)NCCCC[C@H](NC(=O)N[C@@H](CCC(=O)O)C(=O)O)C(=O)O)cc1[131I]  tissue uptake (SCID mouse, PC-3 xenografts, liver; 2 h): 5.73 ± 1.2 %ID/g
CCCCCCCC(=O)OC[C@H](NC(=O)[C@H](CO)NC(=O)CN)C(=O)N[C@@H](Cc1ccccc1)C(=O)N[C@@H](CC(C)C)C(=O)N[C@@H](CO)C(=O)N1CCC[C@H]1C(=O)N[C@@H](CCC(=O)O)C(=O)N[C@@H](Cc1cnc[nH]1)C(=O)N[C@@H](CCC(N)=O)C(=O)N[C@@H](CCCNC(=N)N)C(=O)N[C@H](C(=O)N[C@@H](CCC(N)=O)C(=O)N[C@@H](CCC(N)=O)C(=O)N[C@@H](CCCNC(=N)N)C(=O)N[C@@H](CCCCN)C(=O)N[C@@H](CCC(=O)O)C(=O)N[C@@H](CO)C(=O)N[C@@H](CCCCN)C(=O)N[C@@H](CCCCN)C(=O)N1CCC[C@H]1C(=O)N1CCC[C@H]1C(=O)N[C@@H](C)C(=O)N[C@@H](CCCCN)C(=O)N[C@@H](CC(C)C)C(=O)N[C@@H](CCC(N)=O)C(=O)N1CCC[C@H]1C(=O)N[C@@H](CCCNC(=N)N)C(=O)O)C(C)C  mean residence time (human, both sexes, plasma; intravenous infusion, 3 µg/kg/h, 65 min infusion): 0.75 ± 0.0333 h
C/C=C/C=C/C/C=C/CCCCCCCc1cccc(O)c1O  tissue concentration (female Kunming mice, tumour-bearing, liver; intravenous, 10 mg/kg, 0.5 h): 30400 ± 3170 ng/g
CN(C)C(CNC(=O)Nc1cc(C(F)(F)F)ccc1N1CCOCC1)c1ccncc1 (centres unmarked)  serum osmolarity (mouse, serum; intraperitoneal, 180 mg/kg single dose): 311 mmol/L
CC[C@H](C)[C@@H]1NC(=O)[C@H](CCCCN)NC(=O)[C@H](CCCCN)NC(=O)[C@H](Cc2ccc(O)cc2)NC(=O)[C@H](CC(C)C)NC(=O)[C@@H]2CCCN2C(=O)[C@H](C)NC(=O)CNC(=O)CNC(=O)[C@H](CO)NC(=O)CNC(=O)CNC(=O)[C@H](CO)NC(=O)[C@H](CCCCN)NC(=O)[C@H](CC(C)C)NC(=O)[C@H](CC(C)C)NC(=O)[C@H](CCCCN)NC(=O)[C@H](CCCCN)NC(=O)[C@H]([C@@H](C)CC)NC(=O)[C@H]([C@@H](C)CC)NC(=O)[C@H](CCCCN)NC(=O)[C@H](CCCCN)NC(=O)[C@H](Cc2ccc(O)cc2)NC(=O)[C@H](CC(C)C)NC(=O)[C@@H]2CCCN2C(=O)[C@H](C)NC(=O)CNC(=O)CNC(=O)[C@H](CO)NC(=O)CNC(=O)CNC(=O)[C@H](CO)NC(=O)[C@H](CCC(=O)O)NC(=O)[C@H](CC(C)C)NC(=O)[C@H](CC(C)C)NC(=O)[C@H](CCCCN)NC(=O)[C@H](CCCCN)NC(=O)[C@H]([C@@H](C)CC)NC1=O  HC10 (hemolysis; uninfected human erythrocytes; 1 h): > 100 µM
CCCCCCCCCCCCCCCC(=O)NCCCC[C@H](NC(=O)[C@H](CCC(=O)O)NC(=O)[C@H](Cc1ccc(O)cc1)NC(=O)[C@H](CCC(=O)O)NC(=O)COCC(=O)NCCCOCCOCCOCCCNC(=O)[C@H](Cc1ccccc1)NC(=O)[C@H](CC(N)=O)NC(=O)[C@H](Cc1c[nH]cn1)NC(=O)[C@@H](NC(=O)[C@H](CC(=O)O)NC(=O)[C@H](CCC(N)=O)NC(=O)[C@H](CC(C)C)NC(=O)[C@H](CCCCN)NC(=O)[C@H](CCCCN)NC(=O)[C@H](CCCNC(=N)N)NC(=O)[C@H](CC(C)C)NC(=O)[C@H](Cc1c[nH]c2ccccc12)NC(=O)[C@H](CCC(=O)O)NC(=O)[C@@H](NC(=O)[C@H](CCCNC(=N)N)NC(=O)[C@H](CCC(=O)O)NC(=O)[C@H](CCSC)NC(=O)[C@H](CO)NC(=O)[C@H](CC(N)=O)NC(=O)[C@H](CC(C)C)NC(=O)[C@H](Cc1c[nH]cn1)NC(=O)[C@H](CCCCN)NC(=O)CNC(=O)[C@H](CC(C)C)NC(=O)[C@H](CC(N)=O)NC(=O)[C@H](Cc1c[nH]cn1)NC(=O)[C@H](CCSC)NC(=O)[C@H](CC(C)C)NC(=O)[C@H](CCC(N)=O)NC(=O)[C@@H](NC(=O)[C@H](CCC(=O)O)NC(=O)[C@H](CO)NC(=O)[C@@H](NC(=O)[C@@H](N)CO)C(C)C)[C@@H](C)CC)C(C)C)C(C)C)C(=O)N[C@@H](CCC(=O)O)C(=O)N[C@@H](Cc1ccc(O)cc1)C(=O)N[C@@H](CCC(=O)O)C(N)=O  Tmax ratio (ELISA; CD-1 mice, blood; sc, 10 nmol/kg; baseline: compound over (1-34)): ~6
COc1ccc(N2CCOCC2)c2sc(NC(=O)c3ccnc(CN4CCCC4)c3)nc12  steady-state plasma concentration (Wistar rat, plasma (total); oral, 15 mg/kg/day, 14 days): 3950 ng/mL
Fc1ccc2nc3c4cccnc4c4ncccc4c3nc2c1.[Cl-].[Cl-].[Ru+2].c1ccncc1.c1ccncc1.c1ccncc1.c1ccncc1  hemolysis (red blood cells, rabbit; 5 µM, 2 h, 37 °C): 0.06 ± 0.01%
CCC(CC)OC1C=C(C(=O)OC(C)OC(=O)C(N)C(C)C)CC(NC(=N)N)C1NC(C)=O (mixture of isomers)  AUC(0-24 h) (mice, plasma; po-fed, 10 mg/kg, 24 h): 1440 ± 338 ng·h/mL

A few entries again:
CC[C@H](C)[C@@H]1NC(=O)[C@H](CCCCN)NC(=O)[C@H](CCCCN)NC(=O)[C@H](Cc2ccc(O)cc2)NC(=O)[C@H](CC(C)C)NC(=O)[C@@H]2CCCN2C(=O)[C@H](C)NC(=O)CNC(=O)CNC(=O)[C@H](CO)NC(=O)CNC(=O)CNC(=O)[C@H](CO)NC(=O)[C@H](CCC(=O)O)NC(=O)[C@H](CC(C)C)NC(=O)[C@H](CC(C)C)NC(=O)[C@H](CCCCN)NC(=O)[C@H](CCCCN)NC(=O)[C@H](C(C)C)NC(=O)[C@H]([C@@H](C)CC)NC(=O)[C@H](CCCCN)NC(=O)[C@H](CCCCN)NC(=O)[C@H](Cc2ccc(O)cc2)NC(=O)[C@H](CC(C)C)NC(=O)[C@@H]2CCCN2C(=O)CNC(=O)CNC(=O)[C@@H](NC(=O)CN)CSSC[C@@H](C(N)=O)NC(=O)[C@H](CC(C)C)NC(=O)[C@H](CCCCN)NC(=O)[C@H](CCCCN)NC(=O)[C@H](C(C)C)NC1=O  HC10 (hemolysis; uninfected human erythrocytes; 1 h): ~52 µM
O=C(O)c1ccc([S][Au][PH](c2ccccc2)(c2ccccc2)[c-]2cccc2)cc1.[Fe+2].c1cc[cH-]c1  pH (DMSO/water; 5 × 10 µM): 4.99
